# Published values of several laboratories.
# Numbered parts are unrelated; each lists some results of a single study.

# Sample 1
# Target: Interferon regulatory factor 5, full length, phosphomimetic (IRF5, Homo sapiens, UniProt Q13568-2, residues 1-514, K96S/S451D/S453D/S456D/S462D)
# Technique: protein-binding microarray
# Molecule type: double-stranded DNA, one strand shown
# Matrix: in vitro
# Concentration: 250 nM
# Notes: 60-bp whole probe
# Added: salmon DNA 0.4 mg/ml
# Reference: random background probes
# Direction: higher = stronger binding
# All sequences stand within: GCCTAGCAC … GTCTTGATTCGCTTGACGCTGCTG
Sequence,log fluorescence
TTAGATTTCCGTATCGATTAGTGCTAG,6.33 z-score
GACGGTTCCGATTTCGGGACGTGCTAG,1.47 z-score
GACGGTACCCTTTTCCTGACGTGCTAG,0.0464 z-score
GACTATTCCAGTTTCGAGACGTGCTAG,5.83 z-score
GACGAACTGCGTTTCGAGACGTGCTAG,1.16 z-score
GACGATTTCAGTATAGAGACGTGCTAG,1.69 z-score
TTAGGTATCAACACTGGGTTAGTGCTA,0.376 z-score

# Sample 2
# Target: Histone acetyltransferase KAT6A, both winged helices, GST fusion (KAT6A, Homo sapiens, UniProt Q92794, residues 1-181)
# Technique: protein binding microarray
# Molecule type: double-stranded DNA, one strand shown
# Matrix: in vitro
# Concentration: not given
# Notes: 8-mer, flanks averaged, mean of 2 arrays, mostly near background
# Reference: not given
# Direction: higher = stronger binding
# Target sequence (chain): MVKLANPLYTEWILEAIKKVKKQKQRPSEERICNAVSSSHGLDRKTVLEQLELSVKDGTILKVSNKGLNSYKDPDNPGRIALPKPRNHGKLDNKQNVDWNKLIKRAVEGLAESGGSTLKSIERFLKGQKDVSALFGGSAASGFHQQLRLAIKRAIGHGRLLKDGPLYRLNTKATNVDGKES
Sequence,E-score
ACTATGAG,-0.227
AAGAGATA,-0.163
GCGTCAGA,0.0282
GTCTCTCA,-0.0183
CTTCCATC,-0.0967

# Sample 3
# Target: TAR DNA-binding protein 43, full length, His tag (TARDBP, Homo sapiens, UniProt Q13148, residues 1-414)
# Technique: RNA Bind-n-Seq
# Molecule type: RNA
# Matrix: in vitro
# Concentration: 20 nM
# Notes: 6-mer, flanks averaged, single round
# Added: 150 mM KCl
# Reference: input library
# Direction: higher = stronger binding
Sequence,6-mer enrichment (R)
CUAUCC,0.557
CCUUCA,0.588
GAUAAA,0.715
ACCACU,0.623
ACAGAC,0.678
CCCUGA,0.665

# Other studies, line by line
Molecule,target,assay,system,setting,scale,measurement,result
"PhoQ, residues 284 288 289 292 302 303 SNSSNI","PhoP, residues 12 14 15 18 19 NYFTV (Escherichia coli, UniProt P23836)","Sort-seq, item: YFP reporter",E. coli,"PhoQ-PhoP variant library, added: 10 µM Mg2+","reference: high Mg2+ state, higher = stronger signaling",fold induction,1.1
